Earlier results that unrelated publications cite.
Numbered parts are unrelated; values within a part may stem from several laboratories.

Sample 1 — organism: Toxoplasma gondii; read-out: parasite growth; concentration: concentration not given; notes: published screen
`COc1ccc(/C=C/C(=O)Nc2ccccc2C(=O)O)cc1OC`: activity class “inactive”.
`CC1CCN(CCCC(=O)c2ccc(F)cc2)CC1.Cl`: activity class “inactive”.
`CCOC(=O)c1ccc(OC(=O)CCCCCN=C(N)N)cc1.CS(=O)(=O)O`: activity class “inactive”.
`Nc1nc(N)nc(-c2cc(Cl)ccc2Cl)n1` — result for activity class: “inactive”.
`COc1cc(-c2ccc(=O)[nH]n2)ccc1OC(F)F` — result for activity class: “inactive”.

Single results of other studies
The IC50 of `CN(C)c1ncnc(-c2ccc3nc(Nc4cc(CN5CCN(C(=O)CC(F)(F)F)CC5)ccn4)[nH]c3c2)c1Cl` is reported as 1280 nM (IKBKE; low ATP).
`CN1CCN(c2ccc3nc(-c4c(N)c5c(F)cccc5[nH]c4=O)[nH]c3c2)CC1` has an IC50 of greater than 3000 nM (c-Met; inhibitor).
`Cc1nc(NCc2cnccn2)ncc1C(=O)N1CCC2(CCOCC2)C1` gave an IC50 of 17600 nM (VNN1 (human); enzyme activity).
`CC(C)(c1ccc(O)cc1)c1ccc(O)cc1` gave an uptake of 0.02 µg/kg (HPLC-MS; zebrafish embryos; waterborne, 1 nM, from 8 to 58 hpf).
With `CC1=C(C#N)C(c2ccc3[nH]nc(C)c3c2)C(C#N)=C(C)N1` the IC50 was less than 1 nM (MET; biochemical).
The IC50 of `CCN(CC)CCCCNc1ncc2cc(-c3cc(OC)cc(OC)c3)c(NC(=O)NC(C)(C)C)nc2n1` is reported as 150 nM (VEGFR1-3; inhibitor).
`Cn1c(C2(NC(=O)c3ccc4c(C5CCCC5)c(-c5ncc(Br)cn5)n(C)c4c3)CCC2)nc2ccc(/C=C/C(=O)O)cc21` gave an IC50 of 19 nM (HCV NS5B; biochemical).

A few entries again (sample 1):
`COc1cc(-c2ccc(=O)[nH]n2)ccc1OC(F)F` — result for activity class: “inactive”.
